Experimental data of several laboratories.
Protocols differ between the studies behind these lines. Several values in a cell are separate wells, animals, samples, runs or records. ± marks the error that the study gave.

With `Cc1cc(C)c(CNC(=O)c2cc(Cl)c3c(c2C)O[C@@](C)([C@H]2CC[C@H](N(C)C)CC2)O3)c(=O)[nH]1` the efflux ratio was 51.3 (Caco-2; 10 µM).
`Cc1cc(Nc2ccc(S(F)(F)(F)(F)F)cc2)n2nc(C(C)(F)F)nc2n1` — result for “free drug concentration”: 2.4 µM (Jurkat; culture medium; 20 µM, 48 h).
The CC50 of `COCC(=O)N1CCC[C@H](C(=O)NCc2nc(-c3ccc(C#N)cc3)cs2)C1` is reported as over 50 µM (Jurkat; CellTiter-Glo; 72 h).
With `CCn1c(=O)/c(=C2\Sc3cc(Cl)ccc3N2C)s/c1=C\c1scc[n+]1Cc1ccccc1` the EC50 was 73.8 µM (MYBPC3 iPSC-cardiomyocytes; cytotoxicity).
`CC(C)=CCC[C@@]1(C)C(CC[C@H]2[C@]3(C)CC[C@H](O)C(C)(C)O[C@H]3CC[C@@]2(C)O)=C(C)CC[C@H]1O` gave an IC50 of over 50 µM (KB-C2 (P-gp overexpressing); cell viability, MTT; DMEM with 10% bovine serum; 72 h).
`CO[C@@]12[C@H](COC(N)=O)C3=C(C(=O)C(C)=C(N)C3=O)N1C[C@@H]1N[C@@H]12` has a CC50 of 2.71 ± 0.09 µM (RAW264.7; resazurin; DMEM with 10% FBS).
`CC(C)CC(=O)C(=O)[O-].[Na+]`: “host cell number” 0.925 ± 0.111 (HCT-8; Hoechst nuclei count; 1 mM, 24 h; baseline: PBS).
`CN1CCN(c2ncc(-c3ccc4nncc(Nc5ncc(Cl)cn5)c4c3)cn2)CC1` has a TC50 of 2.9 µM (C2C12 mouse myoblasts; cytotoxicity).
For `Cc1cc(C(=O)NC(C)(C)COc2cccc3c2C(N)=NS(=O)(=O)N3)cc(C)n1`, the cytotoxicity was -3% (human peripheral blood lymphocytes; CBPI, preliminary test; 0.6 µg/mL, 4 h; baseline: vehicle control).
`C/C(O)=C(\C#N)C(=O)Nc1ccc(C(F)(F)F)cc1` — result for “free drug concentration”: 2.6 µM (Jurkat; culture medium; 10 µM, 48 h).
For `C=C1C(=O)O[C@H]2[C@H]1CC/C(C)=C/CC[C@@]1(C)O[C@@H]21`, “maximum tolerated dose” read 3.11 µg/mL (THP-1 ASC-GFP monocytes; MTT; 24 h).
For `CSc1ccc(CNc2ccc(C(=O)O)cc2)cc1`, the IC50 was over 100 µM (HGF; cell viability, resazurin; 72 h, 10% FBS).
`CN1CCC[C@@H](N2C(=O)c3cccc(N)c3C2=O)C1` has a viability of 100 ± 1% (RAW264.7; 10 µM, together with: LPS 10 ng/mL).
`CC(=O)N[C@@H](CCCN)C(=O)O` — result for “host cell number”: 1.01 ± 0.043 (HCT-8; Hoechst nuclei count; 1 mM, 24 h; baseline: PBS).
For `OC[C@H]1O[C@@H](c2ccc(Cl)c(Cc3ccc(O[C@H]4CCOC4)cc3)c2)[C@H](O)[C@@H](O)[C@@H]1O`, the viability was 46.2 ± 9.22% (H9c2; CCK-8; 0.1 µM, together with: glucose deprivation; baseline: control).
With `O=C(O)c1ccc(NCc2cc(Br)ccc2O)cc1` the IC50 was over 100 µM (HGF; cell viability, resazurin; 72 h, 10% FBS).
The viability of `Nc1cccc2c1C(=O)N(C1CCCN(C(=O)C(F)(F)F)C1)C2=O` (stereo not drawn) is reported as 105 ± 1% (RAW264.7; 10 µM, together with: LPS 10 ng/mL).
The TC50 of `COc1ccc(Nc2cnnc3cc(-c4cnc(N5CCCN(C)CC5)nc4)ccc23)cc1Cl` is reported as 2.3 µM (C2C12 mouse myoblasts; cytotoxicity).
With `COCC(=O)N1CCC[C@H](C(=O)NCc2nc(-c3ccc(OC)cc3)cs2)C1` the CC50 was over 50 µM (Jurkat; CellTiter-Glo; 72 h).
For `Cn1nc2c(=O)n(C3CC3)cnc2c1[C@](O)(c1cnc(C(F)(F)F)c(Cl)c1)C(F)(F)F`, the CC50 was over 50 µM (Jurkat; CellTiter-Glo).
With `COc1cc2ncnc(Nc3ccc(Oc4ccccc4)cc3C)c2cc1OC.O=C(O)C(F)(F)F` the viability fraction was 0.978 and 0.913 and 0.972 and 0.925 and 0.992 and 0.996 and 1.01 and 0.988 (SK-MEL-2 (NRAS Q61R); resazurin; concentration not given, 72 h, together with: trametinib 0 nM).
For `Cc1cc(C)c(NC(=O)CN(CC(=O)[O-])CC(=O)[O-])c(C)c1Br.Cc1cc(C)c(NC(=O)CN(CC(=O)[O-])CC(=O)[O-])c(C)c1Br.[99Tc+4]`, the biliary clearance was 5.8 ± 2.4 mL/min/kg (human sandwich-cultured hepatocytes).
The viability of `Nc1cccc2c1C(=O)N(C1CCCNC1)C2=O` (stereo not drawn) is reported as 100 ± 2% (RAW264.7; 1 µM, together with: LPS 10 ng/mL).
`CC(CN)C(=O)O` (racemic): “host cell number” 1.02 ± 0.016 (HCT-8; Hoechst nuclei count; 1 mM, 24 h; baseline: PBS).
For `O=C(O)c1ccc(NCc2cccc(O)c2O)cc1`, the IC50 was over 100 µM (HGF; cell viability, resazurin; 72 h, 10% FBS).
`CC[C@@](N)(c1cnc(C(F)(F)F)c(Cl)c1)c1c2ncn(C3CC3)c(=O)c2nn1C` has a CC50 of over 50 µM (Jurkat; CellTiter-Glo).
With `Cc1cc(NC(=O)Nc2ccc3c(c2)OC(F)(F)O3)cc(C(F)(F)F)n1` the IC50 was 17 µM (THP-1, undifferentiated; cytotoxicity).
`CC(C)C[C@H](NC(=O)OCc1ccccc1)C(=O)N[C@@H](Cc1ccccc1)C(=O)NN(CC(C)C)C(=O)C=O` has a CC50 of over 100 µM (primary NK cells, healthy donors; cell viability, MTS; serum-free medium; 48 h).
Under “host cell number”, `CC(=O)N[C@@H](CC(=O)O)C(=O)O` is recorded as 0.987 ± 0.037 (HCT-8; Hoechst nuclei count; 1 mM, 24 h; baseline: PBS).
For `COc1cccc(CNc2ccc(C(=O)O)cc2)c1OC`, the IC50 was over 100 µM (HGF; cell viability, resazurin; 72 h, 10% FBS).
For `CC(O)CN` (stereo not drawn), “host cell number” read 0.968 ± 0.019 (HCT-8; Hoechst nuclei count; 1 mM, 24 h; baseline: PBS).
The TC50 of `CN1CCN(c2ccc(-c3ccc4nncc(Nc5ccc(OC(F)(F)F)cc5)c4c3)cc2)CC1` is reported as 0.85 µM (C2C12 mouse myoblasts; cytotoxicity).
The IC50 of `COc1cccc(CNc2ccc(C(=O)O)cc2)c1` is reported as over 100 µM (HGF; cell viability, resazurin; 72 h, 10% FBS).
Under “host cell number”, `CN1CCC[C@H]1C(=O)O` is recorded as 0.953 ± 0.083 (HCT-8; Hoechst nuclei count; 1 mM, 24 h; baseline: PBS).
With `CCOCC(=O)N1CCC[C@H](C(=O)NCc2nc(-c3ccc(C#N)cc3)cs2)C1` the CC50 was over 50 µM (Jurkat; CellTiter-Glo; 72 h).
`Cc1ccc(CNC(=O)Cn2cc(CSc3nc4ccccc4[nH]3)nn2)cc1` has a viability of 9.86% (HEK293; MTT; 250 ppm).
`CNc1ccc([N+](=O)[O-])cc1-n1cnc(-c2ccc(C(F)(F)F)cc2)c1`: viability “not toxic” (RAW264.7; up to 100 µM, 24 h).
The therapeutic index of `N=C(CCl)NCCC[C@H](NC(=O)c1ccc2cc(O)ccc2c1)C(=O)NCc1ccccc1` is reported as over 400 fold (A549 and MDA-MB-231; MTT; 48 h, 10% FBS; baseline: CC50 over PAD4 IC50).
`Cc1cnc(CNC(=O)c2c(=O)c3ccc(N4CCCN(C)CC4)nc3n3c2sc2ccccc23)cn1` gave a CC50 of 0.88 ± 0.1 µM (MA104; cytotoxicity, resazurin; 5 days).
`O=C(O)[C@@H]1CCCCN1` — result for “host cell number”: 0.958 ± 0.068 (HCT-8; Hoechst nuclei count; 1 mM, 24 h; baseline: PBS).
For `COC[C@@H](CC(C)C)NC(=O)c1ccc(C)c(C)c1`, the mitotic index was 6.3 (primary human lymphocytes; 158 µg/mL, 20 h).
With `COc1cnc(Nc2cnnc3ccc(-c4ccc(N5CCN(C)CC5)cc4)cc23)nc1` the TC50 was 6.4 µM (C2C12 mouse myoblasts; cytotoxicity).
For `O=C(O)c1ccc(NCc2cccc(C(F)(F)F)c2)cc1`, the IC50 was over 100 µM (HGF; cell viability, resazurin; 72 h, 10% FBS).
`Cc1ccc(C(=O)c2cc(O)c(O)c([N+](=O)[O-])c2)cc1` has a CC50 of at least 100 µM (HCT-8; luminescent ATP cell viability; 24 h).
Under “host cell number”, `O=C([O-])[C@@H](O)CO.[Na+]` is recorded as 0.997 ± 0.064 (HCT-8; Hoechst nuclei count; 1 mM, 24 h; baseline: PBS).
`C[C@H]1O[C@@H](O[C@H]2[C@@H](O)C[C@H](O[C@H]3[C@@H](O)C[C@H](O[C@H]4CC[C@@]5(C)[C@H](CC[C@@H]6[C@@H]5C[C@@H](O)[C@]5(C)[C@@H](C7=CC(=O)OC7)CC[C@]65O)C4)O[C@@H]3C)O[C@@H]2C)C[C@H](O)[C@@H]1O` has a Papp B-A of 4.5 ×10⁻⁶ cm/s (MDCK-II wild type).
`O=C(c1ccc2[nH]ccc2c1)N1CCN(S(=O)(=O)c2ccc3[nH]c(=O)oc3c2)CC1`: viability “not toxic” (HL-60; resazurin; concentration not given, 96 h).
For `COc1ccc(CNc2ccc(C(=O)O)cc2)cc1OC`, the IC50 was over 100 µM (HGF; cell viability, resazurin; 72 h, 10% FBS).
For `CCc1ccc(NC(=O)Nc2c[nH]c3ccccc23)cc1`, viability read “no effect” (reporter cell clones; concentration not given, 6 h).
`O=C(O)c1ccc(NCc2cccc([N+](=O)[O-])c2)cc1` has an IC50 of over 100 µM (HGF; cell viability, resazurin; 72 h, 10% FBS).
`COc1ccc(Nc2cnnc3cc(-c4ccc(S(=O)(=O)N5CCN(C)CC5)cc4)ccc23)nc1` gave a TC50 of over 10 µM (C2C12 mouse myoblasts; cytotoxicity).

Some of these lines once more:
For `Cn1nc2c(=O)n(C3CC3)cnc2c1[C@](O)(c1cnc(C(F)(F)F)c(Cl)c1)C(F)(F)F`, the CC50 was over 50 µM (Jurkat; CellTiter-Glo).
The viability of `Nc1cccc2c1C(=O)N(C1CCCN(C(=O)C(F)(F)F)C1)C2=O` (stereo not drawn) is reported as 105 ± 1% (RAW264.7; 10 µM, together with: LPS 10 ng/mL).
For `CC(O)CN` (stereo not drawn), “host cell number” read 0.968 ± 0.019 (HCT-8; Hoechst nuclei count; 1 mM, 24 h; baseline: PBS).
For `O=C(O)c1ccc(NCc2cccc(C(F)(F)F)c2)cc1`, the IC50 was over 100 µM (HGF; cell viability, resazurin; 72 h, 10% FBS).
For `C=C1C(=O)O[C@H]2[C@H]1CC/C(C)=C/CC[C@@]1(C)O[C@@H]21`, “maximum tolerated dose” read 3.11 µg/mL (THP-1 ASC-GFP monocytes; MTT; 24 h).
`O=C(c1ccc2[nH]ccc2c1)N1CCN(S(=O)(=O)c2ccc3[nH]c(=O)oc3c2)CC1`: viability “not toxic” (HL-60; resazurin; concentration not given, 96 h).
